# Measurements pooled from the literature.
# Lines come from different studies, so protocols differ. ± marks the error that the study gave.
SMILES,assay,system,setting,how to read,endpoint,result
Oc1c(Cl)cc2c(c1Cl)Oc1cc(Cl)c(Cl)cc1O2,,whole cow milk,500 nM nominal,,dose fraction in milk fat,54.5%
C=CC(=O)Nc1cc(Nc2nccc(Nc3cc(Cl)c(F)cc3C(C)(C)O)n2)c(OC)cc1N1CC[C@@H](N(C)C)C1,,human,"oral, dose not given",,blood creatinine increased TEAE,18.6%
CC(=O)c1c([O-])cc(C)oc1=O.[Na+],,"Wistar rat, female, serum","oral, 200 mg/kg, no CYP inhibitor",,clearance,0.833 ± 0.05 mL/min/kg
CCCC1CCC(C2CCC(c3ccc(F)c(F)c3)CC2)CC1 (stereo not shown),,"rat, placenta","5000 ng/mL in perfusate, high dose, mixture of 21 LCMs",,median placental accumulation,356 ng/g
CC(C)[C@@H]1CC[C@@H](C)C[C@@H]1O,acute oral toxicity OECD,"Swiss albino mice, serum","oral, 1000 mg/kg",,total bilirubin,0.44 ± 0.08 mg/dL
C[C@]1(CO)Cc2ncn(-c3ccc(C#N)c(Cl)c3)c2C(=O)O1,measured: abnormal skin odour,human,"10 mg multiple doses, fasted",,subjects with drug-related TEAE,0%
Clc1ccc(-c2cc(Cl)c(Cl)cc2Cl)cc1Cl,,whole cow milk,2000 nM nominal,,dose fraction in skim milk,4.17%
C[C@@H]1NC(=O)[C@H](CCCCNC(=O)CO/N=C/C(=O)NCCCC[C@@H]2NC(=O)[C@@H](Cc3ccccc3)NC(=O)[C@H](CC(=O)O)NC(=O)CNC(=O)[C@H](CCCNC(=N)N)NC2=O)NC(=O)CNC(=O)[C@@H]2CCCN2C(=O)[C@H](CCCCNC(=O)CO/N=C/C(=O)NCCCC[C@@H]2NC(=O)[C@@H](Cc3ccccc3)NC(=O)[C@H](CC(=O)O)NC(=O)CNC(=O)[C@H](CCCNC(=N)N)NC2=O)NC(=O)[C@H](CCCCNC(=O)[C@H](CCCCN)NC(=O)[C@H](Cc2ccccc2)NC(=O)CNC(=O)CN2CCCNCCNCCCNCC2)NC(=O)[C@H](CCCCNC(=O)CO/N=C/C(=O)NCCCC[C@@H]2NC(=O)[C@@H](Cc3ccccc3)NC(=O)[C@H](CC(=O)O)NC(=O)CNC(=O)[C@H](CCCNC(=N)N)NC2=O)NC(=O)CNC(=O)[C@@H]2CCCN2C(=O)[C@H](CCCCNC(=O)CO/N=C/C(=O)NCCCC[C@@H]2NC(=O)[C@@H](Cc3ccccc3)NC(=O)[C@H](CC(=O)O)NC(=O)CNC(=O)[C@H](CCCNC(=N)N)NC2=O)NC1=O [copper-64 labelled],,"normal mice, pancreas","intravenous, 0.74 MBq, 3 h post-injection",,tissue uptake,0.61 ± 0.05 %ID/g
C[C@@H]1OC(=O)NN=C1c1ccc(-c2ccc(F)cc2)c(C(F)(F)F)c1,"phase I trial, measured: Dyspnoea all grades",human patients,20 mg loading then 1 mg daily,,patients with adverse event,50%
Oc1ccc(CSCc2ccc(O)cc2)cc1,,ICR mice male,"oral, 6000 mg/kg, day 15, acute toxicity",,body weight,37.5 ± 1.78 g
N=C(N)NCCNC(=O)C1(Nc2ccccc2)CCN(Cc2ccccc2)CC1,,male Sprague-Dawley rats,"oral, 50 mg/kg",,elimination rate constant,0.00128 ± 0.000194 s⁻¹
CC(C)C(=O)OC[C@H]1O[C@@H](n2ccc(NO)nc2=O)[C@H](O)[C@@H]1O,,rat fetus dialysate,"250 ng/mL, high concentration, three cycles, together with: NHC 1000 ng/mL",,freeze-thaw stability,99.8 ± 1.01%
C=CC(=O)N1CC[C@H](n2nc(C#Cc3cc(OC)cc(OC)c3)c3c(N)ncnc32)C1,,patients with advanced solid tumours,"oral, dose not given, Dysgeusia, any grade, QD, all patients",,adverse drug reaction incidence,14%
C[C@]1(O)C[C@@](N)(c2ccc(-c3nc4n(c3-c3ccccc3)COc3ccncc3-4)cc2)C1,,"human, advanced or metastatic solid tumours","24 mg intermittent, phase I dose escalation",,patients with Diarrhea TEAE,0%
CO[C@H]1C[C@@H]2CC[C@@H](C)[C@@](O)(O2)C(=O)C(=O)N2CCCC[C@H]2C(=O)O[C@H]([C@H](C)C[C@@H]2CC[C@@H](OC(=O)NCCOCCOCCOCCOCCOCCOCCOCCOCCC(=O)N3CCc4cc(Cn5nc(-c6ccc7oc(N)nc7c6)c6c(N)ncnc65)ccc4C3)[C@H](OC)C2)C[C@@H](O)[C@H](C)/C=C(\C)[C@@H](O)[C@@H](OC)C(=O)[C@H](C)C[C@H](C)/C=C/C=C/C=C/1C,,patients with advanced solid tumours,"intravenous, 1.6 mg/3 mg weekly, grade ≥3",,Neutropenia AE leading to dose reduction,0%
Cc1ccc(S(=O)(=O)n2c(N)nc3ccccc32)cc1,,"mouse, plasma","intraperitoneal, 30 mg/kg, 120 min",,plasma concentration,540 ± 40 nM
CCS(=O)(=O)Nc1ccc(Oc2ccc(F)cc2F)c(-c2cn(C)c(=O)c3[nH]ccc23)c1,fatal Staphylococcal bacteremia,"human, relapsed/refractory AML","oral, dose not given",,treatment-emergent adverse events,5%
CC(=O)c1c(C)c2cnc(Nc3ccc(C4CCN(CCS(C)(=O)=O)CC4)cn3)nc2n(C2CCCC2)c1=O,,"human, dose-escalation trial, plasma","oral, 50 mg twice daily, day 1, single dose",,AUC(0-inf),770 ng·h/mL
CCN(CCO)CCCC(C)Nc1ccnc2cc(Cl)ccc12 (stereo not shown),,newly diagnosed glioblastoma patients,"oral, 800 mg/dose, grade 2, together with: radiotherapy plus temozolomide",,non-cardiac chest pain patients,33%
O=C(O)CCCOc1ccc(F)cc1-c1cc(-c2ccccc2C(F)(F)F)n(-c2ccccc2)n1,,"Crl:CD(SD) rats, female, blood","iv, 25 µg/kg, 14 days",,haemoglobin,14.9 g/dL
CN[C@@H](C)C(=O)N[C@H]1CN(S(=O)(=O)c2cccc(S(=O)(=O)N3CC[C@H]4CC[C@@H](C(=O)NC(c5ccccc5)c5ccccc5)N4C(=O)[C@@H](NC(=O)[C@H](C)NC)C3)c2)CC[C@H]2CC[C@@H](C(=O)NC(c3ccccc3)c3ccccc3)N2C1=O,,patients advanced solid tumours,"dose not given, all grades all doses",,treatment-related ALT elevation,7.1%
O=S(=O)(Nc1ccccc1)c1ccc(NC(=S)Nc2ccccc2)cc1,,"mouse, female, blood","oral, 20 mg/kg daily, 14 days",,mean corpuscular volume,49 fL
CCc1ccc(CC/C=C/c2ccc3c(c2)C(=O)CC3)cc1,,"Sprague-Dawley rat, female, blood","oral, 30 mg/kg/day, 14 days",,prothrombin time,12.8 s
CN1CC[C@@H](c2c(O)cc(O)c3c(=O)cc(-c4ccc(C(F)(F)F)cc4Cl)oc23)[C@@H]1CO,measured: Hypotension,relapsed AML,"oral, 100 mg, grade 3-4, intermittent dosing",,patients with adverse event,0%
COc1cc2nccc(Oc3ccc(NC(=O)c4cc5c(n(-c6ccccc6)c4=O)CCCC5=O)nc3)c2cc1OC,,patients with relapsed/refractory AML,"oral, 6 mg once daily",,TEAEs leading to death,0%
CCCCCOc1ccc(-c2ccc(-c3ccc(C(=O)N[C@H]4C[C@@H](O)[C@@H](OCC[N+](C)(C)C)NC(=O)[C@@H]5[C@@H](O)[C@@H](C)CN5C(=O)[C@H]([C@@H](C)O)NC(=O)[C@H]([C@H](O)[C@@H](O)c5ccc(O)cc5)NC(=O)[C@@H]5C[C@@H](O)CN5C(=O)[C@H]([C@@H](C)O)NC4=O)cc3)cc2)cc1,,"adult ICU patients, mITT, serum","dose not given, Baseline",,albumin,26.1 g/L
CC(C)c1nc(N(C)S(C)(=O)=O)nc(-c2ccc(F)cc2)c1/C=C/[C@@H](O)C[C@@H](O)CC(=O)O,,healthy human subjects,"oral, dose not given, study CL-0537 safety set",,incidence of Diarrhea,0%
CC(C)[C@@H]1NC(=O)CNC(=O)[C@H](CC(N)=O)NC(=O)[C@H](CCCNC(=N)N)NC(=O)[C@H](Cc2ccc(O)cc2)NC(=O)[C@H](C(C)C)NC(=O)[C@@H](NC(=O)[C@@H](NC(=O)[C@H](CC(N)=O)NC(=O)[C@H](Cc2c[nH]c3ccccc23)NC(=O)[C@H](C)NC(=O)[C@H](Cc2ccccc2)NC(=O)CN)C(C)C)CSSC[C@@H](C(=O)N[C@@H](Cc2cnc[nH]2)C(=O)N[C@@H](CCCNC(=N)N)C(=O)N[C@@H](CCCNC(=N)N)C(=O)N[C@@H](C)C(=O)N[C@@H](CC(N)=O)C(N)=O)NC(=O)[C@H](C(C)C)NC(=O)[C@H](CCCNC(=N)N)NC1=O,,ICR mouse,"ip, 5 mg/kg",direction not given,lachrymation score,0
NC(=O)[C@H]1CCN(c2ncnc(N)c2F)C[C@@H]1N1CCC[C@@H](Nc2cc(Cl)cc(C(F)(F)F)c2)C1=O,,B-cell malignancy patients,"oral, 246 mg twice daily, dose",,grade ≥3 neutropenia,0%
COc1cc2c(Oc3ccc4[nH]c(C)cc4c3F)ccnc2cc1OCC1(N)CC1,,paediatric recurrent refractory sarcoma,12 mg,,grade 1 or 2 ALP elevation,45.5%
[O-][S+]1CCc2nc(N3CCC(c4ncc(Cl)cn4)CC3)nc(NC3(CO)CCC3)c21 (stereo not shown),"phase I trial, measured: upper abdominal pain",healthy male volunteers,"dose not given, multiple rising dose, all cohorts",,subjects with adverse events,0%
O=C(Nc1ccccc1)C1CCN(C(=O)Oc2cccnc2)CC1,measured: metabolism and nutrition disorders,healthy women,"oral, 100 mg, 9 days",,subjects with adverse event,15.4%
COc1ncccc1-c1cnn2ccc(N3CCN(C(=O)OC(C)C)CC3)nc12,,"rat CCI model, plasma","oral, 30 mg/kg, 210 min",,free concentration,96 nM
CCCCCCCCCCCCCCCC(=O)N[C@@H](CCC(=O)NCCCC[C@H](NC(=O)[C@H](CC(=O)O)NC(=O)[C@H](CO)NC(=O)[C@@H](NC(=O)[C@H](Cc1ccccc1)NC(=O)[C@@H](NC(=O)CNC(=O)[C@H](CCC(N)=O)NC(=O)[C@H](CO)NC(=O)[C@@H](N)Cc1c[nH]cn1)[C@@H](C)O)[C@@H](C)O)C(=O)N[C@@H](CO)C(=O)N[C@@H](CCC(=O)O)C(=O)N[C@@H](Cc1ccc(O)cc1)C(=O)N[C@@H](CC(C)C)C(=O)N[C@@H](CC(=O)O)C(=O)N[C@@H](CO)C(=O)N[C@@H](CCC(=O)O)C(=O)N[C@@H](CCCNC(=N)N)C(=O)N[C@@H](C)C(=O)N[C@@H](CCCNC(=N)N)C(=O)N[C@@H](CC(=O)O)C(=O)N[C@@H](Cc1ccccc1)C(=O)N[C@H](C(=O)N[C@@H](C)C(=O)N[C@@H](Cc1c[nH]c2ccccc12)C(=O)N[C@@H](CC(C)C)C(=O)N[C@@H](CCC(=O)O)C(=O)N[C@@H](C)C(=O)NCC(=O)NCC(=O)O)C(C)C)C(=O)O,measured: Vomiting,humans all renal groups,"subcutaneous, 100 µg single dose",,treatment-related adverse events,35.1%
CCN1CCN(Cc2ccc(Nc3ncc(F)c(-c4cc(F)c5nc6n(c5c4)[C@H](C)CCC6)n3)nc2)CC1,,advanced solid tumour patients,"dose not given, Phase Ia monotherapy",,"Leukopenia incidence, any grade",54.2%
COc1ncnn2ccc(-c3cnc4nc(C)n(Cc5nnc([C@@H](C)F)o5)c4c3)c12,,human,"oral, dose not given, grade 3",,patients with pyrexia,0%
O=C1Nc2cc3[nH]nc(-c4ccncc4)c3cc2CN1Cc1ccccc1,CTCAE v4.03,"human, relapsed or refractory advanced solid tumours","intravenous, 6.4 mg/kg",,patients with vitreous floaters,0%

# For quick reference, copied from above:
SMILES,assay,system,setting,how to read,endpoint,result
COc1ncnn2ccc(-c3cnc4nc(C)n(Cc5nnc([C@@H](C)F)o5)c4c3)c12,,human,"oral, dose not given, grade 3",,patients with pyrexia,0%
C=CC(=O)Nc1cc(Nc2nccc(Nc3cc(Cl)c(F)cc3C(C)(C)O)n2)c(OC)cc1N1CC[C@@H](N(C)C)C1,,human,"oral, dose not given",,blood creatinine increased TEAE,18.6%
Oc1ccc(CSCc2ccc(O)cc2)cc1,,ICR mice male,"oral, 6000 mg/kg, day 15, acute toxicity",,body weight,37.5 ± 1.78 g
CCCC1CCC(C2CCC(c3ccc(F)c(F)c3)CC2)CC1 (stereo not shown),,"rat, placenta","5000 ng/mL in perfusate, high dose, mixture of 21 LCMs",,median placental accumulation,356 ng/g
CC(=O)c1c([O-])cc(C)oc1=O.[Na+],,"Wistar rat, female, serum","oral, 200 mg/kg, no CYP inhibitor",,clearance,0.833 ± 0.05 mL/min/kg
